Published values collected from several papers.
A part holds a random share of what one study measured. “And” joins repeats or separate records; there may be more than shown. pIC50: −log10 of the molar value.
Sequence of UniProt P35916 (whole entry, looked up): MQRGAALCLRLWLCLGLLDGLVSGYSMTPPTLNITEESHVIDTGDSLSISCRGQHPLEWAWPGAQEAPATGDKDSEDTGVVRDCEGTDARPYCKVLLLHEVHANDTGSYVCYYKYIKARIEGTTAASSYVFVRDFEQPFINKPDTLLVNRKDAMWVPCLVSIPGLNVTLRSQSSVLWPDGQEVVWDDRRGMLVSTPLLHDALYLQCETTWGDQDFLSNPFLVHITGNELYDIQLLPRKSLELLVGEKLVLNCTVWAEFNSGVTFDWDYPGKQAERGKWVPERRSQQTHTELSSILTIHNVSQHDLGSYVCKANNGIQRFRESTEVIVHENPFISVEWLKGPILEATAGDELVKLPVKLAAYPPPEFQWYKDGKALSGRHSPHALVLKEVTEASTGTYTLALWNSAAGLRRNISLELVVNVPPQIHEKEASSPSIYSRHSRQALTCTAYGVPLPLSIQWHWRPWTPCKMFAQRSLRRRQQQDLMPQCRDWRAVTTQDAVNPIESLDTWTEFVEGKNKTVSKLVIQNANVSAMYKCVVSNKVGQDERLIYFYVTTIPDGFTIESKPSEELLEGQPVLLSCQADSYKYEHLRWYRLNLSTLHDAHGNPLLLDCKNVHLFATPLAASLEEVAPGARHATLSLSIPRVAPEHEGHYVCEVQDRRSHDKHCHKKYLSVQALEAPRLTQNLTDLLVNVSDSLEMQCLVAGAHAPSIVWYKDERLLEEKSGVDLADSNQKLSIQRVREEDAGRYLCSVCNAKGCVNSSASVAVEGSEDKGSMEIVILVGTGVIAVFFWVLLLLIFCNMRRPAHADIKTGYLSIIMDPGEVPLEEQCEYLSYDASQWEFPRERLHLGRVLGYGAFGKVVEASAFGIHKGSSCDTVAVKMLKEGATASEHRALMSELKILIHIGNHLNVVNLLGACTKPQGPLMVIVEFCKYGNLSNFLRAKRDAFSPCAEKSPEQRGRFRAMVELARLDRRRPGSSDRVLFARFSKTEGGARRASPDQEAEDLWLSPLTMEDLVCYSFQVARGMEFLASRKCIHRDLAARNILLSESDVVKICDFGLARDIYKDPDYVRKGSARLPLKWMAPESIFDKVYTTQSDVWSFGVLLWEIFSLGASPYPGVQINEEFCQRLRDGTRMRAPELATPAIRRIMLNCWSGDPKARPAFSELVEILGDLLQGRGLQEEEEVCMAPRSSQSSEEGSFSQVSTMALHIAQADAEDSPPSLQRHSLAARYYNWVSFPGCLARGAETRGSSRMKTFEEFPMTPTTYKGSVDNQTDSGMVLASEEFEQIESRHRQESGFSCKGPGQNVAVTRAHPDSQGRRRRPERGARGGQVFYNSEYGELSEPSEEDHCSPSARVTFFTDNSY
Sequence of UniProt Q99755 (whole entry, looked up): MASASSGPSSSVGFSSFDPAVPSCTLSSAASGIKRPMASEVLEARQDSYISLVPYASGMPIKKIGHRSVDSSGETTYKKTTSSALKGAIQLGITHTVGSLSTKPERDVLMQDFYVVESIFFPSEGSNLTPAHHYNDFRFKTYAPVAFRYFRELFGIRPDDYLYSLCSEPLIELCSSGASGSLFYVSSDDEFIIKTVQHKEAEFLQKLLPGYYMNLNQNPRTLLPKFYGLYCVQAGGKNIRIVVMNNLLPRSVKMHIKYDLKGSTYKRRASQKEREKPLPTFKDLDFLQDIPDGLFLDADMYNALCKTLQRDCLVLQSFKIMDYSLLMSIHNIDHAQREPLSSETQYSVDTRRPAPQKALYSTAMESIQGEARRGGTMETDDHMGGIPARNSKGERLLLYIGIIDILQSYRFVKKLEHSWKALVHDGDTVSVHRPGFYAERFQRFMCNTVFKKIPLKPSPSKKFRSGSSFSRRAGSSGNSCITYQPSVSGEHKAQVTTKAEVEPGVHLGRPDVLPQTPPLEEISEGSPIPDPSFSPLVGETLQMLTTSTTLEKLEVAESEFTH
Sequence of UniProt P23458 (whole entry, looked up): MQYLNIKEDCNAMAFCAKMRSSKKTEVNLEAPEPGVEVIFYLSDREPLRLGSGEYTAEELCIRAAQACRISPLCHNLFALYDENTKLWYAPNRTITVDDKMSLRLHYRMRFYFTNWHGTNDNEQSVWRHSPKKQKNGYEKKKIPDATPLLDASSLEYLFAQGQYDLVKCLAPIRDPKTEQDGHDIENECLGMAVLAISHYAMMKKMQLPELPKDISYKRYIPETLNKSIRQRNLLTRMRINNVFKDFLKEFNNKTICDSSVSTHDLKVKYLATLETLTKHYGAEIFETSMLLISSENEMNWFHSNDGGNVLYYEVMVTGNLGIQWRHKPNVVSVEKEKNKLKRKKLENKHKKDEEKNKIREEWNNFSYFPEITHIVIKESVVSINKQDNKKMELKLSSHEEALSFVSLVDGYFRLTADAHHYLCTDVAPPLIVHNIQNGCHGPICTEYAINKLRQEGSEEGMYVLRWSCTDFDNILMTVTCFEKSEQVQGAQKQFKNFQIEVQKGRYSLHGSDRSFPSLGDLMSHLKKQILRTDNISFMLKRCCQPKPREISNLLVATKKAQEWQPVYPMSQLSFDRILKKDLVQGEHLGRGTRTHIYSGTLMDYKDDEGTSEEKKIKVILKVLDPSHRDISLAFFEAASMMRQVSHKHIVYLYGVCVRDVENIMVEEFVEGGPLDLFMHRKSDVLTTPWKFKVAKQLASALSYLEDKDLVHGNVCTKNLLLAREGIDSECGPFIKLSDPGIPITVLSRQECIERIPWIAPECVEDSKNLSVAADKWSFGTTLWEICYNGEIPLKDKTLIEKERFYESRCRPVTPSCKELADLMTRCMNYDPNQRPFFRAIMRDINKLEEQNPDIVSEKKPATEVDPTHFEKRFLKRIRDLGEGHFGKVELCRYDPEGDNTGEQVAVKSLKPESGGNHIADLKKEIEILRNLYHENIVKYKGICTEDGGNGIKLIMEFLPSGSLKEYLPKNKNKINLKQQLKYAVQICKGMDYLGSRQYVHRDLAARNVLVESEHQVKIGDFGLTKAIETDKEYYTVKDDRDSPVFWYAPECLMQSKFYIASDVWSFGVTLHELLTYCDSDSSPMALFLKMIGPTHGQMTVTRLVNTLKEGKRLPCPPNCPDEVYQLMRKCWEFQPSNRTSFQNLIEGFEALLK
Sequence of UniProt Q12866 (whole entry, looked up): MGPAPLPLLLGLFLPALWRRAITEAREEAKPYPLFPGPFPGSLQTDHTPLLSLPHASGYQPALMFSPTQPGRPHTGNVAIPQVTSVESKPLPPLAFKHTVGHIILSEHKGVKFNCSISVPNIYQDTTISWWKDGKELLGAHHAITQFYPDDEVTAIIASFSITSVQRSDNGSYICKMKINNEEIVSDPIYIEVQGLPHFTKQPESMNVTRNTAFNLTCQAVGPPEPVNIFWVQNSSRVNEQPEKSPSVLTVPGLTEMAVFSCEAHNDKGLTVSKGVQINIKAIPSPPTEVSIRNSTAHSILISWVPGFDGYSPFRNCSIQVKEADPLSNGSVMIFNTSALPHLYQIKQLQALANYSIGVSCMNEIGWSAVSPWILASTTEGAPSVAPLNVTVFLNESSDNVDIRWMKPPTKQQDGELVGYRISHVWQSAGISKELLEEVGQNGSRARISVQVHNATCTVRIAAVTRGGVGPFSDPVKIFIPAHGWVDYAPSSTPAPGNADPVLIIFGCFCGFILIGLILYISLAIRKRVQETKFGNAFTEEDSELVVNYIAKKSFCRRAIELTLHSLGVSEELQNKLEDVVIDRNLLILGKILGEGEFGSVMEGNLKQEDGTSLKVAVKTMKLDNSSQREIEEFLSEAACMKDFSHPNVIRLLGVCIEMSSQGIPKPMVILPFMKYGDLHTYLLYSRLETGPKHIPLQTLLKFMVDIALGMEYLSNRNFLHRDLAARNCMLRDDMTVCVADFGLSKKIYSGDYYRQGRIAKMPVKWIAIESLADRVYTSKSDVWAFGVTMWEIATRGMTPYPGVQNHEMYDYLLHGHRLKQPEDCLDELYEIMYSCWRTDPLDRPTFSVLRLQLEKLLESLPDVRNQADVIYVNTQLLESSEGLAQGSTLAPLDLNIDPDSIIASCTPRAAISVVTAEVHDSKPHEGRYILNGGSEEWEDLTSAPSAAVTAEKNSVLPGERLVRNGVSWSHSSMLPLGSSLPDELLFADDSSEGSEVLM
Sequence of UniProt P36894 (whole entry, looked up): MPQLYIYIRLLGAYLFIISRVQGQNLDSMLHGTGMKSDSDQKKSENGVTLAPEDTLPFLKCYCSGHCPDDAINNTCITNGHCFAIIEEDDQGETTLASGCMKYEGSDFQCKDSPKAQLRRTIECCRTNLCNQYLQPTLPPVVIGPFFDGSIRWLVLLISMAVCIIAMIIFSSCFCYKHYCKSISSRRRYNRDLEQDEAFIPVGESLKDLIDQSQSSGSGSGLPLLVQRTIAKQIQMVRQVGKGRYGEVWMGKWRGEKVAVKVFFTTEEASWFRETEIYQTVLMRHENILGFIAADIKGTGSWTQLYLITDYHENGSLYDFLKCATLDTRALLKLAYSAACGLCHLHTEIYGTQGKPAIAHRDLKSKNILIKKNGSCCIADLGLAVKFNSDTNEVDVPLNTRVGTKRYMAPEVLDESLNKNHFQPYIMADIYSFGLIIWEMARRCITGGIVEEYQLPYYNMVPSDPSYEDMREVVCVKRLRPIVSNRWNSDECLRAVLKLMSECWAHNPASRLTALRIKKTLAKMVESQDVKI

Series 1
Structure (SMILES): CC(C)S(=O)(=O)c1ccc2nccc(Nc3ccc4sc(C5CCCC5)nc4c3)c2c1
target or system | test | test system | setting | CC50
L929 RIPK3 knockout | cell viability | – | without zVAD, 10% FBS, mean of 3 | 59 µM
L929 | cell viability, CCK-8 | – | 10% FBS, mean of 3, together with: zVAD | 53.1 µM
– | CCK-8 | L929 RIPK3 knockout, mouse | MEM with 10% FBS | 56.7 µM and 59.6 µM
– | CCK-8 | L929 RIPK3 knockout, mouse | MEM with 10% FBS, together with: zVAD | 58.6 µM and 60 µM
L929 | cell growth or viability, CCK-8 | – | – | 53.3 µM
L929 | cell viability, CCK-8 | – | without zVAD, 10% FBS, mean of 3 | 53.2 µM

Series 2 — concentration: 1 µM
Compound: C[C@H](NC(=O)c1cnc2n1[C@](C)(Cc1ccc(C#N)cc1)C(=O)N2c1cc(Cl)c(F)c(Cl)c1)C(=O)NC1(c2ccccn2)CC1
target | effect on | method | remaining binding [%]
Ephrin type-B receptor 3 (EPHB3, Homo sapiens, UniProt P54753) | cell-free assay | competition with immobilised ligand | 100
Mitogen-activated protein kinase 6 (MAPK6, Homo sapiens, UniProt Q16659) | cell-free assay | competition with immobilised ligand | 100
Tyrosine-protein kinase ABL1, non-phosphorylated (ABL1, Homo sapiens, UniProt P00519, T315I) | cell-free assay | competition with immobilised ligand | 85
Phosphatidylinositol 4-phosphate 5-kinase type-1 alpha (PIP5K1A, Homo sapiens, UniProt Q99755) | cell-free assay | competition with immobilised ligand | 100
Mitogen-activated protein kinase kinase kinase 5 (MAP3K5, Homo sapiens, UniProt Q99683) | cell-free assay | competition with immobilised ligand | 92
Epidermal growth factor receptor (EGFR, Homo sapiens, UniProt P00533, G719C) | cell-free assay | competition with immobilised ligand | 100
Tyrosine-protein kinase ABL1, phosphorylated (ABL1, Homo sapiens, UniProt P00519, F317I) | binding | – | 78
Mitogen-activated protein kinase kinase kinase kinase 3 (MAP4K3, Homo sapiens, UniProt Q8IVH8) | cell-free assay | competition with immobilised ligand | 100
Phosphatidylinositol 4-kinase beta (PI4KB, Homo sapiens, UniProt Q9UBF8) | cell-free assay | competition with immobilised ligand | 100
Calcium/calmodulin-dependent protein kinase type 1B (PNCK, Homo sapiens, UniProt Q6P2M8) | cell-free assay | competition with immobilised ligand | 83
Tyrosine-protein kinase JAK1, JH2 (JAK1, Homo sapiens, UniProt P23458) | cell-free assay | competition with immobilised ligand | 100
Tyrosine-protein kinase receptor TYRO3 (TYRO3, Homo sapiens, UniProt Q06418) | cell-free assay | competition with immobilised ligand | 100
Proto-oncogene tyrosine-protein kinase receptor Ret (RET, Homo sapiens, UniProt P07949, V804M) | cell-free assay | competition with immobilised ligand | 100
ALK tyrosine kinase receptor (ALK, Homo sapiens, UniProt Q9UM73) | cell-free assay | competition with immobilised ligand | 100
Phosphatidylinositol 4,5-bisphosphate 3-kinase catalytic subunit alpha isoform (PIK3CA, Homo sapiens, UniProt P42336, E545A) | cell-free assay | competition with immobilised ligand | 100
Tyrosine-protein kinase Mer (MERTK, Homo sapiens, UniProt Q12866) | cell-free assay | competition with immobilised ligand | 99
Cyclin-dependent kinase 11B (CDK11B, Homo sapiens, UniProt P21127) | cell-free assay | competition with immobilised ligand | 100
Tyrosine-protein kinase Fes/Fps (FES, Homo sapiens, UniProt P07332) | cell-free assay | competition with immobilised ligand | 100
Vascular endothelial growth factor receptor 3 (FLT4, Homo sapiens, UniProt P35916) | cell-free assay | competition with immobilised ligand | 100
Bone morphogenetic protein receptor type-1A (BMPR1A, Homo sapiens, UniProt P36894) | binding | competition with immobilised ligand | 98

Series 3 — organism: Sarcocystis neurona; effect on: parasite growth; concentration: 10 µM; notes: second screen; relative to: untreated
SMILES | log2 fold change
CC(=O)CCCCn1cnc2c1c(=O)n(C)c(=O)n2C | 0.17
NS(=O)(=O)c1cc2c(cc1C(F)(F)F)NC(Cc1ccccc1)NS2(=O)=O (centres unmarked) | 0.44
CCN1CC(CCN2CCOCC2)C(c2ccccc2)(c2ccccc2)C1=O.Cl (centres unmarked) | 0.19
COc1ccc2[n-]c([S+]([O-])Cc3ncc(C)c(OC)c3C)nc2c1.COc1ccc2[n-]c([S+]([O-])Cc3ncc(C)c(OC)c3C)nc2c1.[Mg+2] (centres unmarked) | -0.76

Series 4 — action: antagonist
Target: Beta-1 adrenergic receptor (ADRB1, Homo sapiens, UniProt P08588)
Sequence of UniProt P08588 (whole entry, looked up): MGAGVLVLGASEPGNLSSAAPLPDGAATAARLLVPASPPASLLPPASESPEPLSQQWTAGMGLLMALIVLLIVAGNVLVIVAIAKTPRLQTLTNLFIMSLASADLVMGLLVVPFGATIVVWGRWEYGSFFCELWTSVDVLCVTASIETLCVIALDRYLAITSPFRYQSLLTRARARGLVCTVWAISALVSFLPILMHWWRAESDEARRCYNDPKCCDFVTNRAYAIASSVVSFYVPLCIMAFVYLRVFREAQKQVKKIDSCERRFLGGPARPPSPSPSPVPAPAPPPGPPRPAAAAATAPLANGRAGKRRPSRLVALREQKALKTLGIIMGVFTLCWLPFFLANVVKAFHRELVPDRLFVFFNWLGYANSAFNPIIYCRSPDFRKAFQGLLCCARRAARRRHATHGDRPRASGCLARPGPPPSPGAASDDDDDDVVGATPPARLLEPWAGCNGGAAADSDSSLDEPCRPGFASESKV
Compound | pIC50
N#Cc1ccc(C(O)CN2CC=C(C3=NNC(=O)CC3)CC2)cc1 (centres unmarked) | ≤ 4.00
CC(C)NC[C@H](O)COc1ccc(O)cc1 | ≤ 4.00
O=c1oc2ccc(Cl)cc2cc1-c1nc2c(s1)CCc1ccccc1-2 | ≤ 4.00
COc1cccc(NC(=O)c2sc3nc(C)c(C(=O)Nc4ccc(C)cc4C)c(-c4ccc(C)o4)c3c2N)c1 | ≤ 4.00
CCn1ccnc1CN(C)Cc1cccc(OCC(O)CN(C)C2CCCCC2)c1 (centres unmarked) | ≤ 4.00

Series 5 — species: mouse; medium: microsomes or S9; concentration: 2 µM; time: 0.5 h
Compound | remaining compound [%]
CN(C)C(=O)C1CNCCN1C(=O)OC(C)(C)C (centres unmarked) | 66.1
O=C(COc1ccc(Cl)cc1Cl)OCCNC1=NS(=O)(=O)c2ccccc21 | < 1
Cn1c(=O)c2sc3c(c2n(CC(N)=O)c1=O)CCCC3 | 33.6
COc1cc(=O)n(C)cc1C(=O)Nc1cc(C)nc2ccccc12 | 38.2
COc1ccccc1N1CCN(/N=C\C(Cl)=C\c2ccccc2)CC1 | 74.9

Further values, each from its own experiment
Compound | cell line | method | concentration | time | relative to | measurement | value
CO[C@@H]1[C@@H](OC(N)=O)[C@@H](O)[C@H](Oc2ccc3c(O)c(NC(=O)c4ccc(O)c(CC=C(C)C)c4)c(=O)oc3c2C)OC1(C)C | MDA-MB-436 (BRCA1-mutant) | CellTiter-Glo | 200 µM | 6 days | untreated | viability | 2.3%
